Results from different studies.
A part holds a random share of what one study measured. Positions count from the first letter of the parent shown.

Series 1
Target: Histone acetyltransferase KAT6A, winged helix 2, GST fusion (KAT6A, Homo sapiens, UniProt Q92794, residues 85-181)
Method: protein binding microarray
Molecule type: double-stranded DNA, one strand shown
Sample: in vitro
Tested at: not given
Setting: 8-mer, flanks averaged, mean of 2 arrays, mostly near background
Reference: not given
Direction: higher = stronger binding
Quantity: E-score
Construct (chain): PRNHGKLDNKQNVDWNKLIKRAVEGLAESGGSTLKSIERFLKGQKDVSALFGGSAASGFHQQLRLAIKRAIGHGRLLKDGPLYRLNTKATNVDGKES
AGCATTAC: -0.136
ACAGAGAT: -0.019
AGGGGCCA: 0.00955
GGGACGAC: 0.0971
CTAGATCA: -0.137
AACTTGCC: -0.0669
TTCCGAAA: 0.0163
GGATCCTA: -0.105
CATTTCAA: -0.000835
CGGAGCAA: 0.0541
ATTGGGGA: -0.0347
ACTCCTAA: 0.0139
CGCCTTTC: 0.105
CTACTACA: -0.0427
CCGCAGAA: 0.163
AGCGTCAG: -0.0273
ACGTTGTG: 0.0441
AACTTGAT: 0.238
ATGTGGCA: -0.0933
ACACGCCC: 0.0474
AACTCGCA: 0.146
TACCCAGA: -0.0115
GATCGATA: -0.249
ATGATTAC: 0.0473
TCGGGGAA: 0.123

Series 2
Target: Centromere-binding protein 1, full length, His-tagged (CBF1, Saccharomyces cerevisiae, UniProt P17106, residues 1-351)
Sequence of UniProt P17106 (whole entry, looked up): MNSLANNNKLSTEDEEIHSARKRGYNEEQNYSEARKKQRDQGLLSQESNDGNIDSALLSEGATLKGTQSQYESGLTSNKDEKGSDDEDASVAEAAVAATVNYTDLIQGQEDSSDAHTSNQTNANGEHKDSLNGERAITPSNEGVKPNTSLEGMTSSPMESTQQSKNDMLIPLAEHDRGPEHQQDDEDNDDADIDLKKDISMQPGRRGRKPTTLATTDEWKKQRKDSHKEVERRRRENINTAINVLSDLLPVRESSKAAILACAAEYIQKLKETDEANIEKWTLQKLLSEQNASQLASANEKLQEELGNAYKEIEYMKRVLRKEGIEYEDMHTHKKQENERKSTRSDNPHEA
Method: competition protein-binding microarray
Molecule type: double-stranded DNA, one strand shown
Sample: in vitro
Tested at: 2 µM
Setting: whole 60-bp probe, lowest competitor level
Added: Pho4 competitor, 0.05 µM
Direction: higher = stronger binding
Quantity: fluorescence intensity
All sequences stand within: … GTCTTGATTCGCTTGACGCTGCTG
CATACCCAACCTTGGTGGGTGGGTGAAGATATTTGT: 52.8 a.u.
CTAACGAAGGTTTTTCACGTGCGGTACAAGCCAAGT: 720 a.u.
GGCCTGGGTATTATCCTCATGACGCTCGTCAACAAC: 72.1 a.u.
AAACAACTTTAGTGCCGCGTGATGGCGGGGGTTGAA: 195 a.u.
CGGGGTTAAGTTTGAGGTGTGGGTGGCTTGCAGCAG: 69.2 a.u.
TGCGCAACAACTTGTCACTAAACTTTATGTCTAGAA: 81.5 a.u.
CTGTTTCCATTTTGCCGCGTGGAGGCATCTGTCCAA: 85.2 a.u.
GTCTAAATTATTCCGCACGTTTTTCGGTGTGGTACA: 225 a.u.
CACTGAGTACTTCCTCACCTGATCCAATCGATTGAC: 348 a.u.
TGCGCAACAACTTGTTTGGTGGGTGTATGTCTAGAA: 67.9 a.u.
CTTTCCCGATCTTGATGGGTGGGTGTAGCACATTTG: 60.2 a.u.
GTCTTGTCTCATTGTCACTGCACTTTCCCCACTTCA: 85.2 a.u.
TATGGCATGAAAAATCATATGACTTCAAAAATGAAC: 497 a.u.
AAAATCTGTATGACTCACGTGCAAATCATCCATGAG: 1710 a.u.
CTAACGAAGGTTTGTCACAACACTTACAAGCCAAGT: 94.5 a.u.
CGACGTTATCGTTACCACCTGAGGCAAGTTTGTTGT: 87.8 a.u.
AAAGCGGTAATTTGCTTGGTGGGTGCAGATATCTAT: 68.1 a.u.
TTTTTTCTGTTAGGGCACATGACAATTGCCTATTAT: 469 a.u.
TGTATGAGAGTGGTCGATTTCAATCGGCAACATTCT: 62.3 a.u.

Series 3
Target: ABI1, truncated, D143A, DHFR fusion (Arabidopsis thaliana)
Method: DHFR PCA, deep sequencing
Sample: yeast
Setting: methotrexate growth selection, single substitutions
Added: (+)-ABA 58 µM
Reference: wild-type fitted maximum
Direction: higher = stronger binding
Quantity: relative binding score
Parent: PYL1, truncated, DHFR fusion (Arabidopsis thaliana); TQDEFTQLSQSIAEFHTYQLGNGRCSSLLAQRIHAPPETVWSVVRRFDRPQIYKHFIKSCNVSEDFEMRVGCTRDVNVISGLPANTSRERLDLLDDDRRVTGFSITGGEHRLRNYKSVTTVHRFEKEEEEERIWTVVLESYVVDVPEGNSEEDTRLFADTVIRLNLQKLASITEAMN; partner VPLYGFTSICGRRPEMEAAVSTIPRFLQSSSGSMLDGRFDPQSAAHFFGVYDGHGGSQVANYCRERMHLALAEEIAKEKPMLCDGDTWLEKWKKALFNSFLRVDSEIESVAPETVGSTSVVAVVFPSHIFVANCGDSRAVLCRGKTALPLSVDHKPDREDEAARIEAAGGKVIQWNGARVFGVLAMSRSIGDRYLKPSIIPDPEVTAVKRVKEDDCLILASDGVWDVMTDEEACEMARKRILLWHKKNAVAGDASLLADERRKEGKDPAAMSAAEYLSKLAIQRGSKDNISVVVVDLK
F103W: 41.1%
D144E: 70.3%
F15H: 91.6%
T173W: 38.7%
G102P: -3.78%
E67T: 89.2%
F103S: -4.07%
T106E: 86.2%
L20W: 76.4%
P83D: 55.2%
F5S: 79.8%
E131D: 101%

Series 4
Target: Hepatocyte nuclear factor 3-beta, forkhead domain (FOXA2, Homo sapiens, UniProt Q9Y261, residues 142-269)
Method: protein-binding microarray
Molecule type: double-stranded DNA, one strand shown
Sample: in vitro
Tested at: not given
Setting: k-mer, scored over probes, only values ≥0.25
Direction: higher = stronger binding
Quantity: E-score
Construct (chain): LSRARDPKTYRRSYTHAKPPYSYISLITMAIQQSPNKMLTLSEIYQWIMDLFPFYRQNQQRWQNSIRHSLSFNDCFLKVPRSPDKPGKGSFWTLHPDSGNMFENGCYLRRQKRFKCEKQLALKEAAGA
TAACAGAA: 0.31
GAGGTATA: 0.266
AATGTCAC: 0.282
AATTGTAG: 0.265
ACTAACAG: 0.285
GTATCACA: 0.299
AAGACATA: 0.271
ATAGACAT: 0.286
AAAAGATA: 0.256
TGTAACAA: 0.286
CATGTTTA: 0.329
CATAGAAA: 0.278
CAATATCA: 0.284
ATAATAGG: 0.264
AATTATCA: 0.355
ATTCAAAC: 0.265

Series 5
Target: CCND3, cyclin fold, Cln2 fusion (human)
Method: yeast growth competition, sequencing
Sample: yeast
Setting: weak parent motif
Reference: not given
Direction: higher = stronger binding
Quantity: normalised enrichment score
Parent: MICAL3 docking peptide (human); LQLRRQLSFSEDS; partner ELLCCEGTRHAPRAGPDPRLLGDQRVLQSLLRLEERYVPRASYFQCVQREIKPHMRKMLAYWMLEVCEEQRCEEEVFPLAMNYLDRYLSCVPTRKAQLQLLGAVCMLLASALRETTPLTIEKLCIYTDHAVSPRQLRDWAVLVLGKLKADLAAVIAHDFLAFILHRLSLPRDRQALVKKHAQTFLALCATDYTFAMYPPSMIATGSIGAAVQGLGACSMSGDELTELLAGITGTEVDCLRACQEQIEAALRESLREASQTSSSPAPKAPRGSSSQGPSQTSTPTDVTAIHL
LQLRRYLSFSEDS [Q6Y]: 0.177
LQYRRQLSFSEDS [L3Y]: -0.0118
LQLRRILSFSEDS [Q6I]: 0.358
LQLYRQLSFSEDS [R4Y]: 0.368
LQLRRQLSGSEDS [F9G]: -0.0995
LQLRRQLSFIEDS [S10I]: -0.139
LQLRRQLYFSEDS [S8Y]: 0.308
LQLRRQLSFPEDS [S10P]: 0.167
LQLCRQLSFSEDS [R4C]: -0.209
LQLRRQLSFSEKS [D12K]: -0.109
LQLRDQLSFSEDS [R5D]: -0.0082
LQLRRQLSFSYDS [E11Y]: 0.18
LQLRRQLCFSEDS [S8C]: 0.178
LQLRRQLSFSETS [D12T]: 0.135
LQLRRQLSFFEDS [S10F]: 0.275
LQLRRWLSFSEDS [Q6W]: -0.179
LQLRRQLSFSDDS [E11D]: -0.188
LQLRCQLSFSEDS [R5C]: 0.239
LQLRRQVSFSEDS [L7V]: 0.395
LQLRRQLAFSEDS [S8A]: 0.0724
LQLRRQLSVSEDS [F9V]: -0.0749
LQLRRQESFSEDS [L7E]: 0.312
LQLRRNLSFSEDS [Q6N]: 0.00823
LQLRRQLSFAEDS [S10A]: -0.151
LQLRRQHSFSEDS [L7H]: 0.446

Series 6
Target: ATF1, bZIP domain (human)
Method: DHFR protein complementation
Sample: yeast
Setting: single substitutions, most at no-binding floor
Reference: wild-type JUN-FOS pair
Direction: higher = stronger binding
Quantity: binding fitness
Parent: JUN, bZIP domain (human); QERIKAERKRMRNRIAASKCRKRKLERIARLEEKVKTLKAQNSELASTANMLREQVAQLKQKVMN; partner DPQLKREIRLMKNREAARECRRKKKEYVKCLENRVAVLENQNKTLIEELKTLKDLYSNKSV
A29I: -1.38 natural log
I28Q: -1.5 natural log
S47G: -1.48 natural log
K34A: -1.46 natural log
R30M: -1.52 natural log
L59G: -1.38 natural log
E33D: -1.5 natural log
Q55L: -1.6 natural log
S47H: -1.57 natural log
K39F: -1.55 natural log
R30D: -1.43 natural log
L45D: -1.5 natural log
L52H: -1.56 natural log
A49L: -1.46 natural log
A57M: -1.58 natural log
V35E: -1.47 natural log
R30A: -1.36 natural log
T37E: -1.42 natural log
K39A: -1.47 natural log
T37K: -1.47 natural log
R53A: -1.53 natural log
S43K: -1.47 natural log
A57S: -1.37 natural log
S43V: -1.47 natural log
A49I: -1.32 natural log

Series 7
Target: Interferon regulatory factor 3, full length, phosphomimetic (IRF3, Homo sapiens, UniProt Q14653, residues 1-427, S386D/S396D/S398D/S402D/T404D/S405D)
Method: protein-binding microarray
Molecule type: double-stranded DNA, one strand shown
Sample: in vitro
Tested at: 2540 nM top
Setting: 60-bp whole probe
Added: salmon DNA 0.4 mg/ml
Reference: random background probes
Direction: higher = stronger binding
Quantity: fitted relative affinity
All sequences stand within: GCCTAGCAC … GTCTTGATTCGCTTGACGCTGCTG
Construct (chain): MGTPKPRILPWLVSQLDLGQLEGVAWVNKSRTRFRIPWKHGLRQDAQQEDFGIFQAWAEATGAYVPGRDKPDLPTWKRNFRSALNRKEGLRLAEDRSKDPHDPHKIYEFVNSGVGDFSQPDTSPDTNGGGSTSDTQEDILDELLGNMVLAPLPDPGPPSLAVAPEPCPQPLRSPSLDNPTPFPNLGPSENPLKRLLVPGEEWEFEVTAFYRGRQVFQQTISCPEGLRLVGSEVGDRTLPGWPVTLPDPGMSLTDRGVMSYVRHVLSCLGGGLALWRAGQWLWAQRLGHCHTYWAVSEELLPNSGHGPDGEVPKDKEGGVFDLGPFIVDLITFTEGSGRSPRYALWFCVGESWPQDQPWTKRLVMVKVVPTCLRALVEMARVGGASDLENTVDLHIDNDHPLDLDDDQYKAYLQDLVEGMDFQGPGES
TTAGGTTTCGGTTATCGGTTAGTGCTA: 7.81 z-score
GGAGGCCTCTTCATTCATTAAGTGCTA: -0.603 z-score
GACGATTTCTGTATCGAGACGTGCTAG: 2.2 z-score
TTAGGTTTCGACTATCGGTTGGTGCTA: 2.32 z-score
TTAGAACTGCGGTTTCGATTAGTGCTA: 2.5 z-score
GACGGTCTCCTTTTCATGACGTGCTAG: 4.48 z-score
TTAGATATCAGTATCTATTAGTGCTAG: 1.27 z-score
TTAGATCTCAGATTGGATTAGTGCTAG: 0.195 z-score
TTAGGTTTTGGTATCGGTTAGTGCTAG: 4.08 z-score
CCTTGTGTTACTTTCTACTTGTGCTAG: 1.95 z-score
GACGAACTGGGGTATCGAGGCGTGCTA: -0.547 z-score
CACTTTCTTTAACTCATTCTGTGCTAG: 2.81 z-score
TTAGATTTCAGTTTCGTTTAGTGCTAG: 6.11 z-score
TTAGGACTGCTTCTCCTTTCGTGCTAG: 0.323 z-score
GACGGTCTCGGGACTGGGGACGTGCTA: -0.142 z-score
TTAAGACTGGACTATCGGTTAGTGCTA: -0.335 z-score

Repeated from above (series 4):
TAACAGAA: 0.31
GAGGTATA: 0.266
AATGTCAC: 0.282
AATTGTAG: 0.265
ACTAACAG: 0.285
GTATCACA: 0.299
AAGACATA: 0.271
ATAGACAT: 0.286
AAAAGATA: 0.256
TGTAACAA: 0.286
CATGTTTA: 0.329
CATAGAAA: 0.278
CAATATCA: 0.284
ATAATAGG: 0.264
AATTATCA: 0.355
ATTCAAAC: 0.265
